Measurements collected from several papers.
Compare with care: the assays were run in different laboratories.
Target: Serine/threonine-protein kinase PLK2 (PLK2, Homo sapiens, UniProt Q9NYY3)
Chain of UniProt Q9NYY3 (whole entry, looked up): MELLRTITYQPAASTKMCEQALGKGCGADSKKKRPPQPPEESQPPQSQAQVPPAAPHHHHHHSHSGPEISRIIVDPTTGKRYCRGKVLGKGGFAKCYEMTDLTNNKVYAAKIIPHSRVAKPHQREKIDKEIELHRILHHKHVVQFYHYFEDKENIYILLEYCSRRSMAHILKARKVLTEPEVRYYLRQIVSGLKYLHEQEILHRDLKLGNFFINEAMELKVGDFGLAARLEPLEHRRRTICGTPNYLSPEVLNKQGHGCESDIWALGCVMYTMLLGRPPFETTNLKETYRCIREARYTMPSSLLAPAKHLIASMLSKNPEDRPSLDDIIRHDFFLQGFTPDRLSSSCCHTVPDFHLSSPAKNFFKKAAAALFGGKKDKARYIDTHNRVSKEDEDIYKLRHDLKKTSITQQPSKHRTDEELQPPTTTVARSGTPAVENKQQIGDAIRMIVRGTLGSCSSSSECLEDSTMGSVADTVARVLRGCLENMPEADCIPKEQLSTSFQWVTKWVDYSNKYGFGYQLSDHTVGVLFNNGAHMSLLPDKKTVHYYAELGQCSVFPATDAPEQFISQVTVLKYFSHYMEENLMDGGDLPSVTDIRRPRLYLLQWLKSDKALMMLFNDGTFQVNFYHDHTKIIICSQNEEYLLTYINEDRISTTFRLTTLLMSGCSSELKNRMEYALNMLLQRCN

| SMILES | test | conditions | how to read | quantity | value |
| --- | --- | --- | --- | --- | --- |
| C=CC(=O)N1CCC(COCC(=O)N2CCN(c3nc(-c4cnc(N)nc4C(F)F)nc(N4CCOC[C@@H]4C)n3)CC2)CC1 | KINOMEscan | 1 µM | baseline: DMSO control | remaining binding | 100% |
| C=CC(=O)N1CCC(C(=O)NCC(=O)N2CCN(c3nc(-c4cnc(N)nc4C(F)F)nc(N4CCOCC4)n3)CC2)CC1 | KINOMEscan | 1 µM |  | remaining binding | 95% |
| CCCOc1ccc(OC)c(F)c1C(=O)c1ccc(C(=O)N[C@@H]2CNC[C@H]2NC(=O)c2ccc3[nH]ncc3c2)cc1 | enzyme activity | 10 µM |  | remaining activity | 98% |
| COc1cc(F)ccc1-c1ncnc(Nc2cccc(C[S@](C)(=N)=O)c2)n1 | kinase activity | 10 µM, with: 10 µM ATP |  | remaining activity | 92% |
| C1=C/COCc2cc(ccc2OCCN2CCCC2)Nc2nccc(n2)-c2cccc(c2)COC/1 |  | concentration not given |  | percent of control | 96% |
| COc1cc(N2CCN(C)CC2)ccc1Nc1nc(N)n(C(=O)NCc2c(Cl)cccc2Cl)n1 | enzyme activity | 10 µM | baseline: control | remaining activity | 24% |
| Cc1cc(Nc2cc(N3CCN(C)CC3)nc(Sc3ccc(NC(=O)C4CC4)cc3)n2)[nH]n1 | kinase activity, KinaseProfiler | 0.03 µM, species human | baseline: control | remaining activity | 92% |
| CCN(CC)c1ccc(C2=NNC(=O)CC2C)cc1[N+](=O)[O-] (centres unmarked) | enzyme activity, inhibitor | 10 µM | baseline: vehicle | remaining activity | 106% |
| COc1cc(-c2cncc3c2CN(C)Cc2cc(N4CCNCC4)ccc2-3)cc(OC)c1OC | kinase activity | 1 µM, human enzyme, with: ATP 10 µM | baseline: DMSO control | remaining activity | 106% |
| C[C@@H](c1ccc(-n2cnc3c(N)ncnc32)cc1)N1CCc2nn(C)c(Cc3ccccc3)c2C1=O | KINOMEscan | 0.1 µM | baseline: DMSO control | remaining binding | 96% |
| O=C(NC1CCC1)c1ccc2nc(-c3cccc(NS(=O)(=O)NCCN4CCCCC4)c3)cn2c1 | enzyme activity | 10 µM |  | remaining activity | 88% |
